Experimental data from different studies.
Each line is one published result; not all experiments were run side by side. ± gives the spread as reported.
Organism: Salmonella typhimurium

SMILES | assay | test system | conditions | how to read | endpoint | result
CN(N=O)c1ccc(F)cc1 | mutagenicity, Ames plate incorporation | TA1537 | 150 µg/plate, 3 d, without S9, methanol |  | revertant colonies per plate | 9 ± 3
CC(=O)N1CCC(C(=O)N2CCN3C(=O)c4cc(-c5ccccc5)ccc4NC(=O)C3C2)CC1 (stereo not shown) |  | TA98 | 15.8 µg/plate | reference: vehicle | fold increase in revertants | 0.9
Cc1cc(C(=O)NC(C)(C)COc2cccc3c2C(N)=NS(=O)(=O)N3)cc(C)n1 | Ames test, confirmatory | TA98 | 5000 µg/plate, with: rat liver S9 | reference: solvent control | revertant ratio | 0.8
CNC(=O)c1c(N(C)N=O)ncn1C | mutagenicity, Ames plate incorporation | TA98 | 50 µg/plate, without S9, methanol |  | revertant colonies per plate | 25 ± 4
O=[N+]([O-])c1ccc(N2CCN(CCC(O)c3ccc(F)cc3)CC2)c(C(F)(F)F)c1 (stereo not shown) | SOS/umu test | TA1535/pSK1002 | 0.004 mg/mL, 4 h, with S9, full range |  | survival | 81%
N#C[C@@]1(n2ccc(N)nc2=O)O[C@H](CO)[C@@H](O)[C@H]1O |  | TA1535 | 1.2 µM, without S9 |  | viability | 111%
O=[N+]([O-])c1ccc(NC2CCNCC2)c(C(F)(F)F)c1 | SOS response, SOS/umu test | TA1535/pSK1002, TGA medium | 0.001 mg/mL, 4 h, with: rat liver S9 | reference: untreated | induction factor | 0.6
COc1cccc(-c2n[nH]c(SCc3ccccn3)n2)c1OC | Ames test, preincubation | TA98 | 0.13 mg/plate, without S9 |  | revertant colonies per plate | 23
O=[N+]([O-])c1ccc(N2CCC(NCCC(O)c3ccc(F)c4ccccc34)CC2)c(C(F)(F)F)c1 (stereo not shown) | genotoxicity, SOS/umu test | TA1535/pSK1002 | 0.001 mg/mL, 4 h, without S9, lower range |  | induction factor | 0.8
CC(C)N(C)N=O | mutagenicity, Ames plate incorporation | TA1537 | 1500 µg/plate, 3 d, without S9, methanol |  | revertant colonies per plate | 6 ± 2
